Results collected from several papers.
Protocols differ between the studies behind these lines. ± gives the spread as reported.

SMILES	assay	system	conditions	how to read	quantity	value
N#Cc1ccc(N2C[C@H](N)C[C@H](C(F)(F)F)C2)c2cccnc12	–	dog	GLP toxicity study	–	NOAEL	5 mg/kg
CN1CC[C@@H](c2c(O)cc(O)c3c(=O)cc(-c4ccc(C(F)(F)F)cc4Cl)oc23)[C@@H]1CO	refers to: Hyperglycemia	relapsed B-cell malignancies	oral, 200 mg, grade 3-4, intermittent dosing	–	patients with adverse event	0%
O=C(Nc1ccccc1)C1CCN(C(=O)Oc2cccnc2)CC1	–	healthy women	oral, 20 mg, 7 days	–	adverse event Constipation	7.1%
CCc1ccc(CC/C=C/c2ccc3c(c2)C(=O)CC3)cc1	–	Sprague-Dawley rat, female, blood	oral, 120 mg/kg/day, 14 days	–	MCV	58.1 fL
CO[C@H]1C[C@@H]2CC[C@@H](C)[C@@](O)(O2)C(=O)C(=O)N2CCCC[C@H]2C(=O)O[C@H]([C@H](C)C[C@@H]2CC[C@@H](OC(=O)NCCOCCOCCOCCOCCOCCOCCOCCOCCC(=O)N3CCc4cc(Cn5nc(-c6ccc7oc(N)nc7c6)c6c(N)ncnc65)ccc4C3)[C@H](OC)C2)C[C@@H](O)[C@H](C)/C=C(\C)[C@@H](O)[C@@H](OC)C(=O)[C@H](C)C[C@H](C)/C=C/C=C/C=C/1C	–	patients with advanced solid tumours	intravenous, dose not given, any grade	–	incidence of Mucositis TEAE	57.9%
Cc1ccc(F)c2cc(C(=O)N[C@@H]3CCC[C@H](N4CC[C@H](N(C)S(C)(=O)=O)C4)C3)[nH]c12	–	CD1 mouse	intravenous, 1 mg/kg	–	clearance	53.3 mL/min/kg
N=C(N)NCCC[C@@H](NC(=O)[C@@H](N)Cc1ccccc1)C(=O)N[C@@H](Cc1ccccc1)C(=O)N[C@@H](CCCCN)C(N)=O	–	early Huntington's disease patients, plasma	subcutaneous, 25 mg, day 1, median	–	lag time	0 h
CCCCCCCCCCC[C@H](OC1OC[C@H](O)[C@@H](O)[C@@H]1O)[C@H](O)[C@H](O)C[C@@H]1CC(=O)N[C@H](CO)C(=O)N[C@H]([C@H](O)c2ccc(O)cc2)C(=O)N[C@H](CCN)C(=O)NCC(=O)N[C@@H](CC(N)=O)C(=O)N[C@@H](CO)C(=O)N[C@@H]([C@H](O)C(N)=O)C(=O)N1 (stereo partly shown)	LC-MS/MS	rabbit plasma, sodium citrate	800 ng/mL, 3 freeze-thaw cycles, stored at -80°C	–	measured concentration	768 ng/mL
CCCCCOc1ccc(-c2ccc(-c3ccc(C(=O)N[C@H]4C[C@@H](O)[C@@H](OCC[N+](C)(C)C)NC(=O)[C@@H]5[C@@H](O)[C@@H](C)CN5C(=O)[C@H]([C@@H](C)O)NC(=O)[C@H]([C@H](O)[C@@H](O)c5ccc(O)cc5)NC(=O)[C@@H]5C[C@@H](O)CN5C(=O)[C@H]([C@@H](C)O)NC4=O)cc3)cc2)cc1	–	adult ICU patients, mITT, serum	dose not given, Baseline	–	albumin	26.1 g/L
C[C@]1(CO)Cc2ncn(-c3ccc(C#N)c(Cl)c3)c2C(=O)O1	–	human, Chinese, plasma	80 mg single dose, geometric mean	–	Cmax	4.41 µM
COc1ccc(CCC2CCCC(CCc3ccc(OC)cc3)N2C[C@@H](O)CO)cc1.Cl (stereo in doubt)	–	rabbit Purkinje fibres	0.1 µM, cycle length 1 s	relative to: baseline	Vmax change	3.9 ± 4.7%
O=C(O)C(O)(c1cccs1)c1cccs1	refers to: metabolite	human, plasma	oral, 50 mg once daily, 5 days, median	–	dose-normalised free AUC(0-24)	0.282 (ng·h/mL)/mg
COc1cc2c(Oc3ccc4[nH]c(C)cc4c3F)ccnc2cc1OCC1(N)CC1	–	paediatric recurrent refractory sarcoma	12 mg	–	grade 1 or 2 Nausea	9.1%
